Experimental data collected from several papers.
“And” joins repeats or separate records; there may be more than shown. Numbers after ± are the reported error.
histidine kinase ComD: histidine kinase ComD (Streptococcus pneumoniae serotype 4, UniProt A0A0H2US84)
AR: Androgen receptor (AR, Homo sapiens, UniProt P10275)
UniProt P10275, sequence (whole entry, looked up): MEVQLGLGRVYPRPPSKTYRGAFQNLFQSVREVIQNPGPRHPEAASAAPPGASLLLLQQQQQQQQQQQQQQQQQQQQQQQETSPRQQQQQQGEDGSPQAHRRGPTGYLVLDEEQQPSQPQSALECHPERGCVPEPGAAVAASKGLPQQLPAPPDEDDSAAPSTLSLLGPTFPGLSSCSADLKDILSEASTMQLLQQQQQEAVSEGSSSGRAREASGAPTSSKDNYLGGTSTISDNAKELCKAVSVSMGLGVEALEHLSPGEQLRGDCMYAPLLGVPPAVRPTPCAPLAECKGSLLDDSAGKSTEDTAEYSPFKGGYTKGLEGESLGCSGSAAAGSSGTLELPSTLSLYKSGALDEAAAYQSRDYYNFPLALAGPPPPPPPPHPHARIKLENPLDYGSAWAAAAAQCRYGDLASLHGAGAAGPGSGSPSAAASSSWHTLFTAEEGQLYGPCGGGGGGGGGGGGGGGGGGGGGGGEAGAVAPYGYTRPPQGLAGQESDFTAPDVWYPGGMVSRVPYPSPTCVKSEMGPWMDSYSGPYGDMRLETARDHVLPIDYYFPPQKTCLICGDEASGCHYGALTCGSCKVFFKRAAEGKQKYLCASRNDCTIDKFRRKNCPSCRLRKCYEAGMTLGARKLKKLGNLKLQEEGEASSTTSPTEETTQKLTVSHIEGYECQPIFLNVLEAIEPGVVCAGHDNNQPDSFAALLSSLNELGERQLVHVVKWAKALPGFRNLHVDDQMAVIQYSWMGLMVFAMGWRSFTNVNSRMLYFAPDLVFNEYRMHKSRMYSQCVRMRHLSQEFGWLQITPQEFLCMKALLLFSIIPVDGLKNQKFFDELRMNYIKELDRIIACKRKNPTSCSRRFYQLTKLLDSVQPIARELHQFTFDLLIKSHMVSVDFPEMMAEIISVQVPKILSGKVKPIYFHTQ
CPL: CPL (Toxoplasma gondii, UniProt Q6DMN0)
HDAC3: Histone deacetylase 3 (HDAC3, Homo sapiens, UniProt O15379)
UniProt O15379, sequence (whole entry, looked up): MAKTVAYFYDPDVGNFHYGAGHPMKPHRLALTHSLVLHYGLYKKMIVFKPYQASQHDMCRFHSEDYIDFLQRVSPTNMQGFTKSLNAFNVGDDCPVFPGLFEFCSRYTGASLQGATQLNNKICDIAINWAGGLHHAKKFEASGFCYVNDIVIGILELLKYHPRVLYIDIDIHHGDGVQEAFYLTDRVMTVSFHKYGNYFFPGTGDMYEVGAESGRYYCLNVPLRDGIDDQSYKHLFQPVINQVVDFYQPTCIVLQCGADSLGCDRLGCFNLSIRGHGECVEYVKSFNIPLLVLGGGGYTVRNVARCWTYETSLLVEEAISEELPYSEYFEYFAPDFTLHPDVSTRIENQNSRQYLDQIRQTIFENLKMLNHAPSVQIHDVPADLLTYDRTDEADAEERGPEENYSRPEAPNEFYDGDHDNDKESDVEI
P4HB: Protein disulfide-isomerase (P4HB, Homo sapiens, UniProt P07237)
UniProt P05979, sequence (whole entry, looked up): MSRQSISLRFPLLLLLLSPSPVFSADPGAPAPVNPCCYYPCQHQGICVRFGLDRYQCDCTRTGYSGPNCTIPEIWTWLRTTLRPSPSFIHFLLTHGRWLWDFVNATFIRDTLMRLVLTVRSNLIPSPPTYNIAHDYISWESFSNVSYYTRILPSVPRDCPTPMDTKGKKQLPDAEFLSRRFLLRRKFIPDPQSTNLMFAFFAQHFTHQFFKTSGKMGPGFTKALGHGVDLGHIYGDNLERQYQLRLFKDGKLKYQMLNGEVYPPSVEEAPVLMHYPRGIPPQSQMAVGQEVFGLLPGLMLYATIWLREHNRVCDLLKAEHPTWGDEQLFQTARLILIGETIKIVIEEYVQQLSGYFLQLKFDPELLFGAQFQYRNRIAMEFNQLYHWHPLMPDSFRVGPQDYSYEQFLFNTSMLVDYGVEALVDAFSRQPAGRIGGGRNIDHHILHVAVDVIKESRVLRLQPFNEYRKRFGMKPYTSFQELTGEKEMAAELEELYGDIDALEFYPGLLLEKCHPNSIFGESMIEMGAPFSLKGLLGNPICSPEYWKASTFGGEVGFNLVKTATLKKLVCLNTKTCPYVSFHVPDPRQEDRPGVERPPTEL
UniProt P07237, sequence (whole entry, looked up): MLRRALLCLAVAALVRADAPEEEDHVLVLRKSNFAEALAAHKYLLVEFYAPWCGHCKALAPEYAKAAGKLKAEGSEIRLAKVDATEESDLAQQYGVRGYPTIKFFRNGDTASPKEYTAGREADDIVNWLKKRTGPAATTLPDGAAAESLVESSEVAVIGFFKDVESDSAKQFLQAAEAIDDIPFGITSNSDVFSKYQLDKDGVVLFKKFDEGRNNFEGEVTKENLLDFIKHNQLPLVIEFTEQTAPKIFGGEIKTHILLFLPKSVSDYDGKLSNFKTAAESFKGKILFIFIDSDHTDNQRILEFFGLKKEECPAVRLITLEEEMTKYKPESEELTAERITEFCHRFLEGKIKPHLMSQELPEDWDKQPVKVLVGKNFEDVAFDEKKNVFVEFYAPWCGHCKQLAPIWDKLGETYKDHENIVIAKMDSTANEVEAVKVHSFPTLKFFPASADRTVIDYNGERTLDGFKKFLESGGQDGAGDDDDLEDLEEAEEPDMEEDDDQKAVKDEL
UniProt O75475, sequence (whole entry, looked up): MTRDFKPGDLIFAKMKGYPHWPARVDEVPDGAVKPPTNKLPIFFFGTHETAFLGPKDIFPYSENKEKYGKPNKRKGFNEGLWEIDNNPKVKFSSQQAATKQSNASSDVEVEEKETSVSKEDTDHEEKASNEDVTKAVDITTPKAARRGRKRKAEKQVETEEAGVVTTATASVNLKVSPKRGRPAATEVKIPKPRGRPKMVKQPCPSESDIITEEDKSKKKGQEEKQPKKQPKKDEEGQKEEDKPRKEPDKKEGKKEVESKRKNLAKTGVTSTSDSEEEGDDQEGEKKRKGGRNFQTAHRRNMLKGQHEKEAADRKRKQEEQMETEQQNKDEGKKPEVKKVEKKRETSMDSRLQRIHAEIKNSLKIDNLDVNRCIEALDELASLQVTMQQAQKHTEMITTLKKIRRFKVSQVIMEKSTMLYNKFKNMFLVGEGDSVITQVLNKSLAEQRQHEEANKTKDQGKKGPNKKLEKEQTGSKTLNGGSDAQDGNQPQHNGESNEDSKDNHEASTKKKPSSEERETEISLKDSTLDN
UniProt P78325, sequence (whole entry, looked up): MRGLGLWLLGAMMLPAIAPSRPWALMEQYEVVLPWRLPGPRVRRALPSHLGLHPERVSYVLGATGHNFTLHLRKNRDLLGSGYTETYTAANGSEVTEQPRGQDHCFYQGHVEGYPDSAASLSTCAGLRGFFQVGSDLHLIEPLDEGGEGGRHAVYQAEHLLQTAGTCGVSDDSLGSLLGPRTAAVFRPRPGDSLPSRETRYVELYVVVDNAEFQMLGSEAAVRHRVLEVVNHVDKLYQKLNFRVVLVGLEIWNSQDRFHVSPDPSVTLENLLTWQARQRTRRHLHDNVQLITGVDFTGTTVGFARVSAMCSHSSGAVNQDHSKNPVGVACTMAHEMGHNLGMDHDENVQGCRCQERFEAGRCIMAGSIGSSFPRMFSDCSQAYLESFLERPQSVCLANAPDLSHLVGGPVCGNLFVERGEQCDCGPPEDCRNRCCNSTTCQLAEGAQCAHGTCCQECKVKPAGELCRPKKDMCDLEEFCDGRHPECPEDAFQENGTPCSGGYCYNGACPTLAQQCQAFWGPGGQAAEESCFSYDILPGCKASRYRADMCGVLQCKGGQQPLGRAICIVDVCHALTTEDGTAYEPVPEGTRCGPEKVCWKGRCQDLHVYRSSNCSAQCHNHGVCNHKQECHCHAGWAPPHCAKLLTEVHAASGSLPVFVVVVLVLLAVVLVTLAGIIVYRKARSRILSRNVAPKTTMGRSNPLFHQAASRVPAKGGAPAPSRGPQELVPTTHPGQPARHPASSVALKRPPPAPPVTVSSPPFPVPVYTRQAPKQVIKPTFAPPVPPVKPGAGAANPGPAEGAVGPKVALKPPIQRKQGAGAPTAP
UniProt Q86XQ3, sequence (whole entry, looked up): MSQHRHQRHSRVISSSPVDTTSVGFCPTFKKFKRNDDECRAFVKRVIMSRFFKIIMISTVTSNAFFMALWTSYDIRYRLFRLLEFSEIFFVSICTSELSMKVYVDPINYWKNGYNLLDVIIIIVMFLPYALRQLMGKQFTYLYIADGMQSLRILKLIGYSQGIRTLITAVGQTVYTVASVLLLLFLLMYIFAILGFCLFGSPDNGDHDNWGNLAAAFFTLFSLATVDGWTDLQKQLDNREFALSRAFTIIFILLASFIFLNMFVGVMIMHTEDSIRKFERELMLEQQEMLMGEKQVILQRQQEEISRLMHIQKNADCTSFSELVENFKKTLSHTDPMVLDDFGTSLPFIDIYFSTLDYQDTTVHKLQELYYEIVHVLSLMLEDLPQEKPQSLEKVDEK
UniProt O00748, sequence (whole entry, looked up): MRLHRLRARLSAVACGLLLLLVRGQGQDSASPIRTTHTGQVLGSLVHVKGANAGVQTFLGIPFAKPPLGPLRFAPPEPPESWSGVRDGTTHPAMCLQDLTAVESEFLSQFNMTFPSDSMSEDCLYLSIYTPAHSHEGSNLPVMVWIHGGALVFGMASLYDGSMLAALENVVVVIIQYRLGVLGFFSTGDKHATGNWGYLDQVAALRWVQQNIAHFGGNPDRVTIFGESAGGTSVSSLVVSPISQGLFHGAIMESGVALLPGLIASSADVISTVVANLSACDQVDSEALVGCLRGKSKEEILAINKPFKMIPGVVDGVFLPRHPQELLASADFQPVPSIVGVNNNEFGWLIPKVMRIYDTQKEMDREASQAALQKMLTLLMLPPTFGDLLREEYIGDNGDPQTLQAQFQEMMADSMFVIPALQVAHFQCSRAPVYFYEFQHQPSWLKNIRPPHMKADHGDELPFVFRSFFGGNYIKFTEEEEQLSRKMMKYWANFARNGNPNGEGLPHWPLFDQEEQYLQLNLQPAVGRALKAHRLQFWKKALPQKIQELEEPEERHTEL
UniProt P62937, sequence (whole entry, looked up): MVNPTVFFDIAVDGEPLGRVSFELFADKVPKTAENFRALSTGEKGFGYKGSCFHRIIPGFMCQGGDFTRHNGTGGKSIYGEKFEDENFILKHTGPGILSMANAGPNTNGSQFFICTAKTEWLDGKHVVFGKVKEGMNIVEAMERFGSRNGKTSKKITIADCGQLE

CC[C@H](C)[C@H](NC(=O)[C@H](CCCNC(=N)N)NC(=O)[C@H](CCSC)NC(=O)[C@H](C)N)C(=O)N[C@@H](CO)C(=O)N[C@@H](CCCNC(=N)N)C(=O)N[C@H](C(=O)N[C@H](C(=O)N[C@@H](CCCNC(=N)N)C(=O)N[C@H](CC(=O)O)C(=O)N[C@@H](Cc1ccccc1)C(=O)N[C@@H](CC(C)C)C(=O)N[C@@H](Cc1ccccc1)C(=O)N[C@@H](CCC(N)=O)C(=O)N[C@@H](CCCNC(=N)N)C(=O)N[C@@H](CCCCN)C(=O)N[C@@H](CCCCN)C(=O)O)[C@@H](C)CC)[C@@H](C)CC — IC50 (histidine kinase ComD; Streptococcus pneumoniae): > 1000 nM
CCCCCCOc1ccc(Nc2ccccc2C(=O)O)cc1 — IC50 (AR; reporter gene, antagonist, MMTV-Luc reporter; MDA-kb2; 20 h, with: 8 nM DHT (EC90)): > 100000 nM
CC(=O)N[C@@H](CCCNC(=N)N)C(=O)N[C@@H](Cc1ccc(O)cc1)C(=O)N[C@@H](CCCNC(=N)NC(=O)NCCCCN)C(=O)N[C@@H](CC(C)C)C(=O)N[C@@H](CCCNC(=N)N)C(=O)N[C@H](Cc1ccc(O)cc1)C(N)=O — IC50 (Neuropeptide Y receptor type 4 (NPY4R, Homo sapiens, UniProt P50391); β-arrestin 1 recruitment, antagonist; HEK293T; with: 3 nM human pancreatic polypeptide): 1310 ± 390 nM
CC[C@H](C)[C@H](NC(=O)[C@H](Cc1ccccc1)NC(=O)[C@H](CN)NC(=O)[C@H](CCCNC(=N)N)NC(=O)[C@H](Cc1ccccc1)NC(=O)[C@H](Cc1ccccc1)NC(=O)[C@H](CCN)NC(=O)[C@H](CO)NC(=O)[C@H](CC(C)C)NC(=O)[C@H](CCCNC(=N)N)NC(=O)[C@H](CCSC)NC(=O)[C@H](C)N)C(=O)N[C@@H](CC(C)C)C(=O)N[C@@H](CCC(N)=O)C(=O)N[C@@H](CCCNC(=N)N)C(=O)N[C@@H](CCCCN)C(=O)N[C@@H](CCCCN)C(=O)O — IC50 (histidine kinase ComD; Streptococcus pneumoniae cells, Streptococcus pneumoniae): > 1000 nM
Cc1ccccc1C(c1c[nH]c2ccccc12)C(C#N)C#N (stereo not shown) — IC50 (Cocaine esterase (CES2, Homo sapiens, UniProt O00748); enzyme activity, inhibitor; human liver microsomes; pH 7.4, 37 °C, with: fluorescein diacetate): 4370 ± 660 nM
O=C(Nc1ccccc1)c1ccccc1O — IC50 (Histone deacetylase 8 (HDAC8, Homo sapiens, UniProt Q9BY41); enzyme activity, inhibitor): > 10000 nM
N=C(N)NCCC[C@@H](NC(=O)[C@@H](CCCNC(=N)N)NC(=O)[C@@H](CCCNC(=N)N)NC(=O)[C@@H](CCCNC(=N)N)NC(=O)[C@@H](CCCNC(=N)N)NC(=O)[C@@H](CCCNC(=N)N)NC(=O)CCCCCNC(=O)[C@@H](CCCCN)NC(=O)CCCCCNC(=O)[C@H]1O[C@@H](n2cnc3c(N)ncnc32)[C@H](O)[C@@H]1O)C(N)=O — IC50 (cGMP-dependent protein kinase 1, isoform alpha (PRKG1, Homo sapiens, UniProt Q13976)): 468 nM
CCC(C)SSc1ncc[nH]1 (stereo not shown) — IC50 (genome polyprotein, 3C protease (Enterovirus D68, UniProt A0A097BW19); enzyme activity, inhibitor; with 4 mM DTT): > 60000 nM
CCN(CC)C(=O)N1CCN(c2cccc(C(F)(F)F)c2)CC1 — IC50 (CatSper channel complex (Homo sapiens, UniProt Q7RTX7+Q86XQ3+Q8NEC5+Q96P56); calcium influx, inhibitor, FLIPR; human sperm; with: 3 µM progesterone): 39000 nM
CC(C)C[C@@H]1NC(=O)[C@H](CCCNC(=N)N)NC(=O)[C@H](C)NC(=O)[C@H](CC(=O)O)NC(=O)[C@H](CCCCN)NC(=O)[C@@H](CO)NC1=O — IC50 (Disintegrin and metalloproteinase domain-containing protein 8 (Homo sapiens, UniProt P78325); CD23 shedding, inhibitor, ELISA; COS-7, co-transfected with CD23): 255 ± 27 nM
CC(C)CCN(Cc1ccccn1)c1nc(C#N)nc(N2CCOCC2)n1 — IC50 (CPL; enzyme activity, inhibitor, Z-L-R-AMC hydrolysis fluorescence): 82 nM
O=C(CCCCCCC(=O)Nc1ccccc1N=Nc1ccccc1)NO — IC50 (HDAC3; enzyme activity, inhibitor; cis isomer, irradiated): 73 ± 20 nM
CC(C)C[C@@H]1NC(=O)[C@H](Cc2ccc(O)cc2)NC(=O)[C@H](CC(N)=O)NC(=O)[C@H](CO)NC(=O)[C@@H](NC(=O)[C@@H](NC(=O)[C@H](CC(N)=O)NC(=O)[C@H](Cc2ccc(O)cc2)NC(=O)[C@@H](N)CCCCN)C(C)C)CSC1=O — IC50 (Accessory gene regulator protein C (Staphylococcus epidermidis, UniProt O86861)): 75.8 nM
C=CC1CN2CCC1CC2C(O)c1c(-c2ccc(N=Nc3ccccc3)cc2)cnc2ccc(OC)cc12 (stereo not shown) — IC50 (Sodium channel protein type 5 subunit alpha (SCN5A, Homo sapiens, UniProt Q14524); sodium current, blocker, whole-cell patch clamp; HEK-293T; pH 7.3, cis isomer, with: light 365 nm): 11800 nM
CC(=O)NC1C(OC2OC(CC(O)C3OC(n4ccc(=O)[nH]c4=O)C(O)C3O)C(O)C(O)C2NC(=O)COCc2ccc(N3CCC(Oc4ccc(OC(F)(F)F)cc4)CC3)cc2)OC(CO)C(O)C1O (stereo not shown) — IC50 (UDP-N-acetylglucosamine--dolichyl-phosphate N-acetylglucosaminephosphotransferase (Homo sapiens, UniProt Q9H3H5); enzyme activity, inhibitor): 120 nM
COc1cccc(/C=C/C(=O)c2cccc(C)c2)c1OC — IC50 (Prostaglandin G/H synthase 2 (PTGS2, Homo sapiens, UniProt P35354); enzyme activity, inhibitor, ELISA): 58800 nM
CCCCCOC(=O)c1ccc(Nc2ccccc2C(=O)O)cc1 — IC50 (AR; reporter gene, antagonist, MMTV-Luc reporter; MDA-kb2; 20 h, with: 8 nM DHT (EC90)): 83800 ± 20700 nM
CC(=O)CCC1C(=O)NC(C(C)C)C(=O)NC(Cc2cc(O)cc(F)c2)C(=O)N2CCCC(N2)C(=O)OC(C(C)=CC=CC(=O)N2CCCCO2)CC=CC=CC(O)C(C)C1O (stereo not shown) — IC50 (Peptidyl-prolyl cis-trans isomerase A, with HCV NS5A (PPIA, Homo sapiens, UniProt P62937); inhibitor): 100 ± 10 nM
CC[C@H](C)[C@H](NC(=O)[C@H](CC(N)=O)NC(=O)[C@H](CC(N)=O)NC(=O)[C@@H](N)CCCNC(N)=O)C(=O)N1C[C@H](n2cc(-c3ccc(N)cc3)nn2)C[C@H]1C(=O)N[C@H](Cc1c[nH]c2ccccc12)C(=O)N[C@@H](CO)C(N)=O — IC50 (Envelope glycoprotein gp160, gp120 (env, Human immunodeficiency virus type 1 group M subtype B, UniProt P35961); HIV-1): > 100000 nM
Brc1ccc(Oc2ccc(Br)cc2Br)c(Br)c1 — IC50 (ATP-dependent translocase ABCB1 (Abcb1a, Mus musculus, UniProt P21447, N83Q/N87Q/N90Q); ATPase activity, inhibitor; purified recombinant protein; 5 min, pH 7.5, with: verapamil 100 µM): 22600 nM
CSCC[C@H](NC(=O)[C@H](C)N)C(=O)N[C@@H](CCCNC(=N)N)C(=O)N[C@@H](CCC(N)=O)C(=O)N[C@H](C(=O)N[C@@H](Cc1c[nH]cn1)C(=O)N[C@@H](CC(N)=O)C(=O)N[C@@H](Cc1ccccc1)C(=O)N[C@@H](Cc1ccccc1)C(=O)N[C@@H](Cc1ccccc1)C(=O)N[C@@H](Cc1ccccc1)C(=O)N[C@@H](Cc1ccccc1)C(=O)N[C@@H](Cc1ccccc1)C(=O)N[C@@H](CCCCN)C(=O)N[C@@H](CCCNC(=N)N)C(=O)N[C@@H](CCCNC(=N)N)C(=O)O)[C@@H](C)O — IC50 (histidine kinase ComD; reporter gene, antagonist; Streptococcus pneumoniae, TIGR4 comX::lacZ; 30 min, 37 °C, with: CSP2 250 nM): > 10000 nM
CC[C@H](C)[C@H]1C(=O)O[C@H](C(C)C)C(=O)N(C)[C@@H]([C@@H](C)CC)C(=O)O[C@H](C(C)C)C(=O)N(C)[C@@H]([C@@H](C)CC)C(=O)O[C@H](C(C)C)C(=O)N1C — IC50 (Heat shock protein HSP 90-beta (HSP90AB1, Homo sapiens, UniProt P08238); progesterone receptor hormone-binding recovery, inhibitor, reconstitution with purified chaperones; 5 purified chaperones): 7500 to 10000 nM
O=C(CCCCCCC(=O)Nc1cccc(N=Nc2ccccc2)c1)NO — IC50 (HDAC3; enzyme activity, inhibitor; trans isomer): 19 ± 9 nM
COCCNC(P(=O)(O)O)P(=O)(O)O — IC50 (Squalene synthase (Homo sapiens, UniProt P37268); enzyme activity, inhibitor): 2420 nM
Nc1ncnc2c1ncn2[C@@H]1O[C@H](CSCCNC(=O)NCCc2ccccc2)[C@@H](O)[C@H]1O — IC50 (Protein arginine N-methyltransferase 3 (PRMT3, Homo sapiens, UniProt O60678); enzyme activity, inhibitor, radiometric): > 50000 nM
COc1ccc(S(=O)(=O)N2CCN(c3nc4ccc(Cl)cc4o3)CC[C@H]2C)cc1 — IC50 (Orexin/Hypocretin receptor type 1 (HCRTR1, Homo sapiens, UniProt O43613); calcium signal, antagonist, fluorescence): 2290 nM
CN[C@@H]1[C@H](O)[C@H](NC)[C@H]2O[C@]3(O)[C@H](O[C@@H]2[C@H]1O)O[C@H](C)C[C@@]3(O)CNCc1ccccc1 — IC50 (Small ribosomal subunit protein uS5, 70S ribosome (rpsE, Mycolicibacterium smegmatis, UniProt A0QSG6); translation, inhibitor, in vitro translation, luciferase; Mycobacterium smegmatis ribosomes): 0.87 µg/mL
COc1cccc(/C=C/C(=O)C(c2ccccc2)c2ccccc2)c1OC — IC50 (Prostaglandin G/H synthase 1 (PTGS1, Ovis aries, UniProt P05979); enzyme activity, inhibitor, ELISA): 14600 nM and < 25000 nM
N#Cc1nc(N2CCOCC2)nc(N(Cc2ccc(F)cc2)CC2CCOCC2)n1 — IC50 (CPL; enzyme activity, inhibitor, Z-L-R-AMC hydrolysis fluorescence): 400 nM
CC(C)[C@@H]1NC(=O)[C@H](CC(=O)O)NC(=O)[C@H](C)NC(=O)[C@H](CCC(=O)O)NC(=O)CNC(=O)[C@H](CCC(=O)O)NC(=O)CNC(=O)[C@@H](N)CSSC[C@@H](C(N)=O)NC1=O — IC50 (WD repeat-containing protein 5, WBM site (WDR5, Homo sapiens, UniProt P61964); binding, inhibitor): > 100000 nM
CC[C@H](C)[C@@H]1NC(=O)[C@H](CC(C)C)NC(=O)[C@@](C)(NC(=O)[C@H](Cc2ccccc2)NC(=O)[C@H](Cc2ccc(O)cc2)NC(=O)[C@H](C)NC(=O)[C@@H](N)[C@@H](C)O)CCCC=CCCC[C@@](C)(C(=O)NCC(=O)N[C@@H](CCCNC(=N)N)C(=O)N[C@@H](Cc2c[nH]c3ccccc23)C(N)=O)NC(=O)[C@H](CC(C)C)NC1=O — IC50 (PC4 and SFRS1-interacting protein, with HIV integrase (Homo sapiens, UniProt O75475); LEDGF/p75-integrase interaction, inhibitor): 5000 nM
CCCc1ccc(S(=O)(=O)N2CC2C(=O)OC)cc1 (stereo not shown) — IC50 (P4HB; enzyme activity, inhibitor, absorbance; pH 7.6): 850 nM
O=C[C@H](C[C@H]1CCNC1=O)NC(=O)[C@H](CC1CCCCC1)NC(=O)OCc1cccc(Cl)c1 — IC50 (Genome polyprotein, 3C protease (Human enterovirus D68, UniProt Q68T42); 3C protease activity, inhibitor, FRET): 55 ± 10 nM
CC[C@H](C)[C@H](NC(=O)[C@H](CCCNC(=N)N)NC(=O)[C@H](CCCNC(=N)N)NC(=O)[C@@H]1CCCN1C(=O)[C@@H]1CCCN1C(=O)[C@H](CCCNC(=N)N)NC(=O)[C@@H]1CCCN1C(=O)[C@H](CCCNC(=N)N)NC(=O)[C@@H]1CCCN1C(=O)[C@H](CC(C)C)NC(=O)[C@H](Cc1ccc(O)cc1)NC(=O)[C@@H]1CCCN1C(=O)[C@@H]1CCCN1C(=O)[C@H](CCCCN)NC(=O)[C@H](CC(=O)O)NC(=O)[C@@H](NC(=O)c1cn(C2CC2)c2cc(N3CCNCC3)c(F)cc2c1=O)C(C)C)C(=O)N[C@@H](Cc1ccc(O)cc1)C(=O)N[C@@H](CC(N)=O)C(=O)N[C@@H](CCCNC(=N)N)C(N)=O — IC50 (dnaK (Escherichia coli, UniProt P0A6Y8); ligand displacement, FP; pH 7.5): 1010 nM
CC(C)CCN(Cc1ccccc1C(F)(F)F)c1nc(C#N)nc(N2CCOCC2)n1 — IC50 (CPL; enzyme activity, inhibitor, Z-L-R-AMC hydrolysis fluorescence): 740 nM
Cc1cc(Nc2nc(C[C@@]3(C(=O)O)CCN(Cc4cccc(Cl)c4F)[C@H](C)C3)cc(C)c2F)n[nH]1 — IC50 (Aurora kinase A (AURKA, Homo sapiens, UniProt O14965); phosphorylation, Western blot, measured: p-AURKA Thr288; NCI-H446; 16 h): 2.08 nM
C[C@H](NC(=O)[C@H](CCC(=O)O)NC(=O)[C@H](CO)NC(=O)[C@H](C)NC(=O)[C@H](CO)NC(=O)CSCCNC(=O)CCNC(=O)[C@H](O)C(C)(C)COP(=O)(O)OP(=O)(O)OC[C@H]1O[C@@H](n2cnc3c(N)ncnc32)[C@H](O)[C@@H]1OP(=O)(O)O)C(N)=O — IC50 (N-alpha-acetyltransferase 50 (Homo sapiens, UniProt Q9GZZ1); enzyme activity, inhibitor): 11000 nM
CN(C)c1ccc(C(=O)N2CCN3C(=O)N(OC(=O)N4CCC(CCc5ccc(Cl)cc5)CC4)C(=O)C3C2)cc1 (stereo not shown) — IC50 (Androgen-induced gene 1 protein (Homo sapiens, UniProt Q9NVV5)): 570 ± 140 nM
COC(=O)C1CN1S(=O)(=O)c1ccc(C(C)(C)C)cc1 (stereo not shown) — IC50 (P4HB; insulin reduction, inhibitor, insulin turbidity; full-length PDIA1): 600 ± 30 nM
NC1=NN=Cc2ccccc2[O][V](=[O])[O]1.c1cnc2c(c1)ccc1cccnc12 — IC50 (Tyrosine-protein phosphatase non-receptor type 22 (PTPN22, Homo sapiens, UniProt Q9Y2R2); enzyme activity, inhibitor): 6820 ± 1930 nM
